Measured values pooled from the literature.
“And” joins repeats or separate records; there may be more than shown. ± gives the spread as reported.
Tpo: Thyroid peroxidase (Tpo, Rattus norvegicus, UniProt P14650)
EPHX2: Bifunctional epoxide hydrolase 2 (EPHX2, Homo sapiens, UniProt P34913)
JAK1: Tyrosine-protein kinase JAK1 (JAK1, Homo sapiens, UniProt P23458)
APC: Adenomatous polyposis coli protein (APC, Homo sapiens, UniProt P25054)
MAOB: Amine oxidase [flavin-containing] B (MAOB, Homo sapiens, UniProt P27338)
CDPK1: Calcium-dependent protein kinase 1 (CDPK1, Plasmodium falciparum, UniProt P62344)
CACNA1I: Voltage-dependent T-type calcium channel subunit alpha-1I (CACNA1I, Homo sapiens, UniProt Q9P0X4)
MGLL: Monoglyceride lipase (MGLL, Homo sapiens, UniProt Q99685)
gag-pol integrase: Gag-Pol polyprotein, integrase (gag-pol, Human immunodeficiency virus 1, UniProt P12497)

Substance	target	test	system	setting	IC50
O=C(ON1C(=O)c2ccccc2C1=O)N1CC(N2CCN(C(=O)c3nccs3)CC2)C1	Monoglyceride lipase (Rattus norvegicus, UniProt Q8R431)	enzyme activity, inhibitor		with preincubation	> 1000 nM
C=CC(C)(C)c1cc2c(cc1O)OC[C@H](c1cc(-c3oc4cc(O)ccc4c3C(=O)c3cc(C(C)(C)C=C)c(O)cc3O)c(O)cc1O)C2	RELA (Homo sapiens, UniProt Q04206)	NF-κB activity, inhibitor			440 nM
Oc1ccc(OCc2ccccc2)cc1	Tpo	tyrosine iodination, LC-MS/MS	rat thyroid microsomes	added: KI 300 µM, H2O2 40 µM	8550 nM
O=C(CCCCCCNC(=O)[C@H]1CCCN(C(=O)c2ccc(NC(=O)Nc3ccc(OC(F)(F)F)c(F)c3)c(F)c2)C1)NO	EPHX2	enzyme activity, inhibitor, fluorescence			0.2 nM
CC1(C)S[C@@H]2[C@H](/N=C/N3CCCCCC3)C(=O)N2[C@H]1C(=O)O	PA3047 (Pseudomonas aeruginosa, UniProt Q9HZG1)	binding, Bocillin FL competition	Pseudomonas aeruginosa 1771 membranes	PBP 4, added: Bocillin FL 100 µM	> 39900 nM
O=C(Nc1cc(F)c(F)c(F)c1)c1cc(S(=O)(=O)N2CCOCC2)c(Cl)cc1Cl	LPAR2 (Homo sapiens, UniProt Q9HBW0)	Ca2+ mobilization, antagonist	MEF	added: LPA at EC50	> 100000 nM
CC(=O)OC[C@H]1O[C@@H]([S-])[C@H](OC(C)=O)[C@@H](OC(C)=O)[C@@H]1OC(C)=O.CCP(CC)CC.[Au+]	trxB (Escherichia coli, UniProt P0A9P4)	enzyme activity, inhibitor, absorbance		with preincubation	210 nM
COc1ccc2c(c1OC)C(=O)O[C@@H]2[C@H]1c2c(cc3c(c2OC)OCO3)CCN1C	CYP2C19 (Homo sapiens, UniProt P33261)	enzyme activity, inhibitor	human, liver microsomes	pH 7.4	5000 nM and 5700 nM
Nc1ncnc2c1ncn2[C@@H]1O[C@H](COP(=O)(O)OP(=O)(O)C(Cl)(Cl)P(=O)(O)O)[C@@H](O)[C@H]1O	JAK1	enzyme activity, inhibitor, HotSpot kinase		added: ATP 1 µM	100 nM
CC(C)C[C@H](NC(=O)[C@H](Cc1ccc2ccccc2c1)NC(=O)[C@H](CCC(=O)O)NC(=O)c1ccnc(C(F)(F)F)n1)C(=O)NC1CC1c1ccccc1 (stereo partly drawn)	APC	ligand displacement, FP			3050 nM
O=C(C=Cc1ccco1)Nc1cccc(-c2nnc(C3CCCCC3)o2)c1	α-amylase	enzyme activity, inhibitor			5940 nM
OC1CCCc2c(OCCOc3ccccc3)cccc21 (stereo not drawn)	MAOB	enzyme activity, inhibitor, fluorescence			1660 nM
CCOc1ccc2cc(-c3cn(CC4CC4)c4ncnc(N)c34)ccc2c1	CDPK1	enzyme activity, inhibitor			> 2000 nM
COc1cc(/C=C/c2ccc(O)cc2)cc(OC)c1	UGT1A6 (Homo sapiens, UniProt P19224)	enzyme activity, inhibitor	human liver microsomes	60 min, added: serotonin 8 mM	15100 ± 2800 nM
C[C@@H](CNCc1ccccc1)N1C[C@H](CCCNC(=N)N)N(CCc2cccc(F)c2)C1=S	GABAA receptor agonist site	binding, radioligand displacement			> 1000 nM
COc1ccc2cc(-c3cn(CC4CCN(C(C)=O)CC4)c4ncnc(N)c34)ccc2c1	CDPK1	enzyme activity, inhibitor			> 2000 nM
sodium copper chlorophyllin	Thiosulfate sulfurtransferase (TST, Bos taurus, UniProt P00586)	enzyme activity, inhibitor		Rho counter-screen	11000 nM
O=C(Nc1ccc([N+](=O)[O-])cc1[N+](=O)[O-])c1ccccc1	MAOB	enzyme activity, inhibitor			> 1000 nM
CCCn1cnc2c(NCc3ccc(C)s3)nc(N[C@H](CC)CO)nc21	CACNA1I	inhibitor, FLIPR calcium	HEK293 with GCaMP6s-CAAX, Kir2.3	added: KCl at EC90	20000 nM
COC(=O)C1=C(C)NC(C)=C([N+](=O)[O-])[C@H]1c1ccccc1C(F)(F)F	Voltage-dependent P/Q-type calcium channel subunit alpha-1A, with β4/α2δ1 (Homo sapiens, UniProt O00555)	calcium current, blocker, automated patch clamp		tonic block, holding -90 mV	24800 ± 7300 nM
COc1cc(/C=C/C(=O)CC(=O)/C=C/c2ccc(O)c(OC)c2)ccc1O	Tpo	enzyme activity, inhibitor, LC-MS/MS, refers to: monoiodotyrosine	rat thyroid microsomes	added: L-tyrosine substrate	1530 nM and 1590 nM
O=C(OC(C(F)(F)F)C(F)(F)F)N1CCC(CCn2ccc3c(F)cccc32)CC1	MGLL	enzyme activity, inhibitor			470 nM
O=C(O)/C(O)=C/C(=O)c1cn(Cc2ccc(F)cc2)c2cc(N3CCCC3)ccc2c1=O	gag-pol integrase	3'-processing, inhibitor, gel-based		added: Mg2+	9000 nM
COC(=O)C1=C(C)NC(C)=C([N+](=O)[O-])[C@H]1c1ccccc1C(F)(F)F	CACNA1I	inhibitor, FLIPR calcium	HEK293 with GCaMP6s-CAAX, Kir2.3	added: KCl at EC90	16000 nM
Nc1nc(N)c(N=O)c(OCc2ccc(Cl)cc2)n1	PIK3CD (Homo sapiens, UniProt O00329)	enzyme activity, inhibitor			500 nM and 1100 nM
CC(C)Oc1ccc(-c2c[nH]cc2CN(C)CC(N)=O)cc1	PRMT8 (Homo sapiens, UniProt Q9NR22)	enzyme activity, scintillation proximity		added: 3H-SAM	> 10000 nM

Substance	target	test	system	setting	IC50
CCCN1C[C@H](CSC)C[C@@H]2c3cccc4[nH]cc(c34)C[C@H]21	human MBNL1	CUG repeat RNA binding, inhibitor, HTRF		added: biotin-(CUG)12 RNA	15800 nM
CC(C)C[C@H](NC(=O)[C@H](Cc1ccc2ccccc2c1)NC(=O)[C@H](CCC(=O)O)NC(=O)c1ccnc(Br)n1)C(=O)NC1CC1c1ccccc1 (stereo partly drawn)	APC	ligand displacement, FP			6450 nM
Cc1ccc(Oc2cccc(CC(=O)N3CCNc4nc(C(F)(F)F)ccc4[C@H]3CC(=O)O)c2)cn1	Neuromedin-B receptor (Rattus norvegicus, UniProt P24053)	ligand displacement, radioligand			> 3000 nM
Cc1ccc(CNC(=O)[C@H](CCc2ccccc2)NC(=O)[C@H](CCc2ccccc2)NC(=O)[C@H](CCc2ccccc2)NC(=O)c2cnc(C)cn2)cc1	Proteasome component C5/PSMB5 (Homo sapiens, UniProt P20618+P28074)	inhibitor			16 nM
C[C@H]1C[C@H]2[C@@H]3CCC4=CC(=O)C=C[C@]4(C)[C@@]3(Cl)[C@@H](O)C[C@]2(C)[C@@]1(O)C(=O)CO	SRC (Homo sapiens, UniProt P12931)	enzyme activity, inhibitor, ADP detection			> 10000 nM
CN(C)[C@@H]1C(O)=C(C(N)=O)C(=O)[C@@]2(O)C(O)=C3C(=O)c4c(O)cccc4[C@@](C)(O)[C@H]3[C@H](O)[C@@H]12	UBASH3B (Homo sapiens, UniProt Q8TF42)	enzyme activity, inhibitor, fluorescence			3600 nM
COc1cc(/C=C/C(=O)O)ccc1O	firefly luciferase	luminescence signal, luminescence counter-screen	cell-free, after ADP processing	up to 77 µM, added: ADP 1.25 µM, ATP 11.25 µM	no inhibition
O=C(NNC(=O)c1ccc(CNS(=O)(=O)c2ccc(F)c(Cl)c2)cc1)c1ccccc1	Glutamate NMDA receptor; Grin1/Grin2a (Grin1/Grin2a, Rattus norvegicus, UniProt P35439+Q00959, V783H)	ion current, two-electrode voltage clamp		oocytes	60 nM
Nc1ccn([C@@H]2S[C@H](COP(=O)(O)OP(=O)(O)OP(=O)(O)O)[C@@H](O)[C@@H]2F)c(=O)n1	POLA1 (Bos taurus, UniProt A0AAA9THK8)	enzyme activity, inhibitor, radiometric			1900 nM
CCOC(=O)/C(O)=C/C(=O)c1cn(Cc2ccc(F)cc2)c2cc(Cl)ccc2c1=O	gag-pol integrase	3'-processing, inhibitor, gel-based		added: Mg2+	> 333000 nM
C[C@]12CC3CC(Nc4c(Nc5ccc(C(=O)N6CCC[C@H](C(=O)NCCCCCC(=O)NO)C6)cc5)c(=O)c4=O)(C1)C[C@@](C)(C3)C2	EPHX2	enzyme activity, inhibitor, fluorescence			410 nM
COc1cc(C(Nc2ccccn2)c2cc3c(cc2O)OCO3)cc(OC)c1OC (stereo not drawn)	JAK1	enzyme activity, inhibitor			> 400000 nM
hemin	Membrane-associated progesterone receptor component 2 (Homo sapiens, UniProt O15173)	probe labelling, gel-based competition	transfected HEK-293T cell lysate		40000 nM
O=C(Nc1cc(C(=O)Nc2ccc(S(=O)(=O)O)cc2S(=O)(=O)O)cc(C(=O)Nc2ccc(S(=O)(=O)O)cc2S(=O)(=O)O)c1)Nc1cc(C(=O)Nc2ccc(S(=O)(=O)O)cc2S(=O)(=O)O)cc(C(=O)Nc2ccc(S(=O)(=O)O)cc2S(=O)(=O)O)c1	Transcription factor Sp1 (Homo sapiens, UniProt P08047)	DNA binding, inhibitor, TR-FRET		added: FAM-labelled oligonucleotide 100 nM	24.7 nM
CCCCCCCCCC[N+](CC)(CC)CC	CNGA1 (Bos taurus, UniProt Q00194)	mean open time, blocker, single-channel recording		+70 mV, added: cGMP 2 mM	16000 ± 4000 nM
Cc1nc2ccccc2n1Cc1ccc(C(=O)NO)cc1	HDAC6 (Homo sapiens, UniProt Q9UBN7)	enzyme activity, inhibitor			4.65 nM
CC(=O)N1CCN(C(=O)C2(NC(=O)Nc3ccc(C)cc3)CC2)CC1	Endoplasmic reticulum aminopeptidase 1, open conformation (ERAP1, Homo sapiens, UniProt Q9NZ08)	enzyme activity, inhibitor, fluorogenic		partial inhibition, added: L-AMC substrate	> 200000 nM
O=c1c(O)c(-c2cc(O)c(O)c(O)c2)oc2cc(O)cc(O)c12	firefly luciferase	luminescence signal, luminescence counter-screen	cell-free, after ADP processing	up to 77 µM, added: ADP 1.25 µM, ATP 11.25 µM	no inhibition
O=C(OC(C(F)(F)F)C(F)(F)F)N1CCC(CCn2ccc3cccc(F)c32)CC1	MGLL	enzyme activity, inhibitor			460 nM
O=C(COc1ccccc1Cl)Nc1cc(Br)ccc1C(=O)O	TRPM4 (Homo sapiens, UniProt Q8TD43)	ion flux, inhibitor, fluorescence			1000 nM
O=C(CCCCCCNC(=O)[C@H]1CCCN(C(=O)c2ccc(NC(=O)Nc3ccc(F)c(C(F)(F)F)c3)c(F)c2)C1)NO	EPHX2	enzyme activity, inhibitor, fluorescence			0.4 nM
Cc1ccc(-c2cc(-c3ccc(F)cc3)nc(NC(=S)NC(=O)c3ccccc3)n2)cc1	Proteinase K (PROK, Engyodontium album, UniProt P06873)	enzyme activity, inhibitor, absorbance		pH 8	1830 nM
Cc1ccc(S(=O)(=O)Nc2cccc(-c3nnc(C4CCCCC4)o3)c2)cc1	α-amylase	enzyme activity, inhibitor			6010 nM
O=C(OC(C(F)(F)F)C(F)(F)F)N1CCC(Cn2ccc3cccc(F)c32)CC1	MGLL	enzyme activity, inhibitor			580 nM
O=C1C(=Cc2ccc(Cl)cc2)C(NC2CCCCC2)c2ccccc21 (stereo not drawn)	Dual specificity protein phosphatase 6 (Homo sapiens, UniProt Q16828)	ERK phosphorylation restoration, inhibitor, chemical complementation	HeLa transfected with c-Myc-DUSP6	15 min, added: TPA	37800 ± 11800 nM

Repeated from above:
Substance	target	test	system	setting	IC50
O=C(C=Cc1ccco1)Nc1cccc(-c2nnc(C3CCCCC3)o2)c1	α-amylase	enzyme activity, inhibitor			5940 nM
OC1CCCc2c(OCCOc3ccccc3)cccc21 (stereo not drawn)	MAOB	enzyme activity, inhibitor, fluorescence			1660 nM
CCOc1ccc2cc(-c3cn(CC4CC4)c4ncnc(N)c34)ccc2c1	CDPK1	enzyme activity, inhibitor			> 2000 nM
COc1cc(/C=C/c2ccc(O)cc2)cc(OC)c1	UGT1A6 (Homo sapiens, UniProt P19224)	enzyme activity, inhibitor	human liver microsomes	60 min, added: serotonin 8 mM	15100 ± 2800 nM
C[C@@H](CNCc1ccccc1)N1C[C@H](CCCNC(=N)N)N(CCc2cccc(F)c2)C1=S	GABAA receptor agonist site	binding, radioligand displacement			> 1000 nM
COc1ccc2cc(-c3cn(CC4CCN(C(C)=O)CC4)c4ncnc(N)c34)ccc2c1	CDPK1	enzyme activity, inhibitor			> 2000 nM
sodium copper chlorophyllin	Thiosulfate sulfurtransferase (TST, Bos taurus, UniProt P00586)	enzyme activity, inhibitor		Rho counter-screen	11000 nM
